Measurements gathered from unrelated publications.
Lines come from different studies, so protocols differ. Values joined by “and” are separate records of one study, mostly repeats; a detail may differ. Numbers after ± are the reported error.

Structure (SMILES)	cell line	test	system	conditions	how to read	measurement	value
Cc1[nH]c2ccccc2c1-c1csc(-c2c[nH]c3ccccc23)n1	HPV18 keratinocyte raft cultures	BrdU incorporation	mid strata	concentration not given		host DNA replication	no inhibition
Nc1nc(NS(=O)(=O)c2ccccc2)nc(-c2ccc(Cl)cc2)c1-c1nc2ccccc2s1	BGM	cytotoxicity		72 h		maximum non-toxic concentration	100 µg/mL
O=C(C[C@@H](C(F)F)n1ccc(F)n1)N1CCC(O)(Cn2cnc3c(cnn3-c3ccc(F)cc3)c2=O)CC1	CHP-212 parental	SRB		0.02744 µM		viability	75.9% and 71.4%
Cc1ccc(C(=O)CNc2nc(NS(=O)(=O)c3ccccc3)ncc2-c2nc3ccccc3s2)cc1	BGM	cytotoxicity		72 h		maximum non-toxic concentration	90 µg/mL
FC(F)(F)CN1CC(n2cc(Oc3ccn4nc(Cl)cc4n3)cn2)C1	Caco-2/TC7			1 µM	baseline: B-A over A-B	efflux ratio	1.7
COc1c(C)c(OS(=O)(=O)c2ccc3ccccc3c2)c(C)c(OS(=O)(=O)c2ccc3ccccc3c2)c1C(=O)/C=C/c1ccccc1	normal human liver cell line	cytotoxicity, SRB		72 h		IC50	> 50 µM
Cc1ccc(S(=O)(=O)Nc2nc(N)c(-c3nc4ccccc4s3)c(-c3ccccc3)n2)cc1	BGM	cytotoxicity		72 h		maximum non-toxic concentration	90 µg/mL
C[C@]12CC[C@@H]3c4ccc(O)cc4C[C@@H](CCCCCCCCC[S+]([O-])CCCC(F)(F)C(F)(F)F)[C@H]3[C@@H]1CC[C@@H]2O (stereo partly shown)	LCC2 tamoxifen-resistant	CCK-8		50 nM	baseline: untreated	viability	94.8% and 86.6% and 96.6%
O=c1c2ccccc2sn1-c1ccc(F)cc1	TZM-bl	viability				CC50	> 100 µM
Cc1ccc(-c2nc(NS(=O)(=O)c3ccccc3)nc(N)c2-c2nc3ccccc3s2)cc1	BGM	cytotoxicity		72 h		maximum non-toxic concentration	90 µg/mL
CCCC(CCC)NC(=O)c1ccc2c(c1)OCO2	CHO-WBL			0.56 mg/mL, 3 h, with rat liver S9		cells with aberrations	0.5%
CC(=O)CNc1nc(NS(=O)(=O)c2ccccc2)ncc1-c1nc2ccccc2s1	BGM	cytotoxicity		72 h		maximum non-toxic concentration	60 µg/mL
CC(=O)Nc1cccc(-n2c(=O)n(C3CC3)c(=O)c3c(Nc4ccc(I)cc4F)n(C)c(=O)c(C)c32)c1	LoVo (KRAS G13D)	resazurin		50.00 nM, 72 h, unit not given	baseline: DMSO	viability	0.367 and 0.323
COc1ccc(-c2nc(N)nc(N)c2-c2nc3ccccc3s2)cc1	BGM	cytotoxicity		72 h		maximum non-toxic concentration	70 µg/mL
Nc1n[nH]c2c(-c3nc4ccccc4s3)c(N)n(NS(=O)(=O)c3ccccc3)c(=O)c12	BGM			72 h		maximum non-toxic concentration	90 µg/mL
CS(=O)(=O)CCNCc1ccc(-c2ccc3ncnc(Nc4ccc(OCc5cccc(F)c5)c(Cl)c4)c3c2)o1	Ba/F3 IL-3-dependent	cell proliferation		48 h, counter-screen		CC50	> 3.33 µM
Cc1noc(C)c1Cn1cc(N2C(=O)CN(Cc3cccc(O)c3)C2=O)cn1	human blood lymphocytes			200 µg/mL, 21 h		aberrant cells without gaps	2%
Cc1cc(C(=O)NC(C)(C)COc2cccc3c2C(N)=NS(=O)(=O)N3)cc(C)n1	human peripheral blood lymphocytes	CBPI, preliminary test		0.2 µg/mL, 24 h	baseline: vehicle control	cytotoxicity	-10%
O=C(O)C1=CC(=C(c2ccc(O)c(C(=O)O)c2)c2ccc(O)c(C(=O)O)c2)C=CC1=O	MC-38	cell proliferation, IncuCyte confluence		100 µM		inhibition	< 5%

Structure (SMILES)	cell line	test	system	conditions	how to read	measurement	value
CCSc1c(-c2nc3ccccc3s2)c(N)n(NS(=O)(=O)c2ccc(C)cc2)c(=O)c1C#N	BGM			72 h		maximum non-toxic concentration	120 µg/mL
CC(=O)OC[C@H]1O[C@@H]([S-])[C@H](OC(C)=O)[C@@H](OC(C)=O)[C@@H]1OC(C)=O.CCP(CC)CC.[Au+]	MEC2	XTT		0.1 µM, 3 days		cytotoxicity	not toxic
CCSC(SCC)=C(C#N)c1nc2ccccc2s1	BGM			72 h		maximum non-toxic concentration	110 µg/mL
Cc1nn(C(C)c2nnc(Nc3ccn(Cc4ccccc4)n3)s2)c(C)c1Br (stereo not shown)	TZM-bl	cell viability, PrestoBlue				CC50	> 12.5 µM
CSc1c(-c2nc3ccccc3[nH]2)c(N)n(NS(=O)(=O)c2ccccc2)c(=O)c1C#N	BGM			72 h		maximum non-toxic concentration	100 µg/mL
CCCCCCCCCCCC(=O)Oc1c(C)c(O)c(C(=O)/C=C/c2ccccc2)c(OC)c1C	normal human liver cell line	cytotoxicity, SRB		72 h		IC50	> 50 µM
CSc1nc(NS(=O)(=O)c2ccc(C)cc2)nc(N)c1-c1nc2ccccc2s1	BGM	cytotoxicity		72 h		maximum non-toxic concentration	100 µg/mL
COc1cc2ncnc(Nc3ccc(Oc4ccccc4)c(C)c3C)c2cc1OC.Cl	MeWo (NF1 mutant)	resazurin		0.3 µM, 72 h, unit not given, together with: trametinib	baseline: DMSO	viability	0.888
O=c1c2ccccc2sn1Cc1ccc(Cl)cc1	TZM-bl	viability				CC50	> 100 µM
COc1cccc2c1C(=O)c1c(O)c3c(c(O)c1C2=O)C[C@@](O)(C(=O)CO)C[C@@H]3O[C@H]1C[C@H](N)[C@H](O)[C@H](C)O1	BNL mouse liver cells	SRB		1 µM, 10% fetal bovine serum		viability	91.7%
O[C@H]1[C@H](OCc2cn(Cc3ccc(F)cc3)nn2)O[C@H]2[C@@H]1OC[C@H]2O	CAL-51	cytotoxicity, CellTiter-Glo		up to 30 µM, 72 h		viability	not toxic
Cc1ccc(S(=O)(=O)Oc2ccc(NC(=O)c3cnccn3)cc2)cc1	1321N1 astrocytoma	MTT		100 µM, 24 h		viability	81.2 ± 0.88%
O=C(O[C@@H]1COC(=O)c2cc(O)c(O)c(O)c2-c2c(cc(O)c(O)c2O)C(=O)O[C@H]1[C@@H]1OC(=O)c2cc(O)c(O)c(O)c2-c2c(O)c(O)c(O)c3c2C(=O)O[C@H]1[C@@H]3O)c1cc(O)c(O)c(O)c1	SIM-A9 microglia	MTT		6.67 to 213.3 µM		viability	> 75%
CCSc1c(-c2nc3ccccc3s2)c(N)n(NS(=O)(=O)c2ccccc2)c(=O)c1C#N	BGM			72 h		maximum non-toxic concentration	120 µg/mL
Cc1ccc(-c2nc(NS(=O)(=O)c3ccc(C)cc3)nc(N)c2-c2nc3ccccc3s2)cc1	BGM	cytotoxicity		72 h		maximum non-toxic concentration	90 µg/mL
CCOC(=O)c1cc(C#N)c(=O)n(NS(=O)(=O)c2ccccc2)c1N	BGM			72 h		maximum non-toxic concentration	90 µg/mL
Cc1cc(C)c(CNC(=O)c2cc(Cl)c3c(c2C)O[C@@](C)([C@H]2CC[C@H](N(C)C)CC2)O3)c(=O)[nH]1	Caco-2			30 µM		Papp A to B	0.564 ± 0.123 ×10⁻⁶ cm/s
N#C/C=C/c1ccc2c(S(=O)(=O)n3nc(Nc4ccc(C#N)c(Cl)c4)nc3N)cccc2c1	TZM-bl	CellTiter-Blue		48 h		CC50	~5 µM

Repeated from above:
Structure (SMILES)	cell line	test	system	conditions	how to read	measurement	value
O=c1c2ccccc2sn1Cc1ccc(Cl)cc1	TZM-bl	viability				CC50	> 100 µM
CS(=O)(=O)CCNCc1ccc(-c2ccc3ncnc(Nc4ccc(OCc5cccc(F)c5)c(Cl)c4)c3c2)o1	Ba/F3 IL-3-dependent	cell proliferation		48 h, counter-screen		CC50	> 3.33 µM
Cc1cc(C(=O)NC(C)(C)COc2cccc3c2C(N)=NS(=O)(=O)N3)cc(C)n1	human peripheral blood lymphocytes	CBPI, preliminary test		0.2 µg/mL, 24 h	baseline: vehicle control	cytotoxicity	-10%
Cc1ccc(S(=O)(=O)Nc2nc(N)c(-c3nc4ccccc4s3)c(-c3ccccc3)n2)cc1	BGM	cytotoxicity		72 h		maximum non-toxic concentration	90 µg/mL
